Results collected from several papers.
Parts stem from different laboratories: compare values within a part only. Positions count from the first letter of the parent shown.

Block 1
Target: CCNE2, cyclin fold, Cln2 fusion (human)
Technique: yeast growth competition, sequencing
Medium: yeast
Notes: strong parent motif
Baseline: not given
Reading: higher = stronger binding
Starting sequence: BRCA2 docking peptide (human); PSIKRNLLNEFDR; partner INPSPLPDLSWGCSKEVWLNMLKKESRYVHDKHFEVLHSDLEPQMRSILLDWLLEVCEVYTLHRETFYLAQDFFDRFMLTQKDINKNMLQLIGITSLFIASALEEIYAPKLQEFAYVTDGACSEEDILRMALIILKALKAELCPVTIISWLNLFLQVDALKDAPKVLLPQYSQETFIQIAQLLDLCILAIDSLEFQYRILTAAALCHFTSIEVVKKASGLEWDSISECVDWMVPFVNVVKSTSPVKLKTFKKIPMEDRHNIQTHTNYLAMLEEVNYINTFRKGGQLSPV
Variant	normalised enrichment score
PSIKRNLLNEVDR [F11V]	1.43
PLIKRNLLNEFDR [S2L]	1.75
PSIKRNRLNEFDR [L7R]	0.562
PSIKRNLLNEIDR [F11I]	1.28
PSIKRNLLNEFDC [R13C]	0.688
PSIKRNLLNEMDR [F11M]	0.775
PSIKRNLHNEFDR [L8H]	0.471

Block 2
Target: Histone acetyltransferase KAT6A, winged helix 2, GST fusion (KAT6A, Homo sapiens, UniProt Q92794, residues 85-181)
Technique: protein binding microarray
Molecule type: double-stranded DNA, one strand shown
Medium: in vitro
Tested at: not given
Notes: 8-mer, flanks averaged, mean of 2 arrays, mostly near background
Baseline: not given
Reading: higher = stronger binding
Construct (chain): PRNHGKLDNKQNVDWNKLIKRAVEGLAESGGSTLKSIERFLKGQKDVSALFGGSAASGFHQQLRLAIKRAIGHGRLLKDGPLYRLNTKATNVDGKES
Strand	E-score
TGCGATAA	-0.00965
CGAGATCC	0.107
GCATTGCC	-0.0107
GACGGGCA	0.123
ACTGCAGT	-0.0317
GCGACACC	0.0312

Block 3
Target: Sal-like protein 4, full length isoform A (SALL4, Homo sapiens, UniProt Q9UJQ4, residues 1-1053)
Chain of UniProt Q9UJQ4 (whole entry, looked up): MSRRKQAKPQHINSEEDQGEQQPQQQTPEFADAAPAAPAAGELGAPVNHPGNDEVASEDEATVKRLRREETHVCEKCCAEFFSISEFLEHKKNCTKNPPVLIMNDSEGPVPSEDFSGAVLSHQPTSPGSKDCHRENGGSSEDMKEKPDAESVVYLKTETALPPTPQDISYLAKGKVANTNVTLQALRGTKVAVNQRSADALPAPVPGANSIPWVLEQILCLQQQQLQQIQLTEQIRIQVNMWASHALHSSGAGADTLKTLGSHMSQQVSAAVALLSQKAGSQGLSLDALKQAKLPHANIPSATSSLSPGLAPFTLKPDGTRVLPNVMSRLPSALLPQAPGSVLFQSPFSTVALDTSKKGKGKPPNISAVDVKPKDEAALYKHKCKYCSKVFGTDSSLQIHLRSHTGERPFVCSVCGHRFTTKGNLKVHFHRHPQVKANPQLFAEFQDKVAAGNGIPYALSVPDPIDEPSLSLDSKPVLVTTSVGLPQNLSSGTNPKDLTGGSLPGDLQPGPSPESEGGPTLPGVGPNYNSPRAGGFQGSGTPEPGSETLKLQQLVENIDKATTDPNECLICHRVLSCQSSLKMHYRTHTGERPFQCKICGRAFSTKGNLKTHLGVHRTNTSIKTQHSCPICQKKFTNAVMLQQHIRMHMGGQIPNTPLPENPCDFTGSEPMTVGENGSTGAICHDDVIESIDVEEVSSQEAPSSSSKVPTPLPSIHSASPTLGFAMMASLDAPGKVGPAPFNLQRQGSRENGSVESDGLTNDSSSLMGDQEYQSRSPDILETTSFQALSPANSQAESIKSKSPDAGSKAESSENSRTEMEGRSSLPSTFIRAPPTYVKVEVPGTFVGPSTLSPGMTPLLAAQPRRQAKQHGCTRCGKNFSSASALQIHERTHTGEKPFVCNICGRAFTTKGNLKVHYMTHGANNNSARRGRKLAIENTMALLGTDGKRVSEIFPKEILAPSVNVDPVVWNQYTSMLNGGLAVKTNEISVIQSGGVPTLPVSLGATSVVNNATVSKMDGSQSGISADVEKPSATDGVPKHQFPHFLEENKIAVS
Technique: universal PBM
Molecule type: double-stranded DNA, one strand shown
Medium: in vitro
Tested at: 600 nM
Notes: 8-mer, flanks averaged, mean of replicates
Reading: higher = stronger binding
Strand	E-score
AGTTGACG	0.0476
AGACTTGC	-0.11
AGCAGGCT	-0.165
ACTACGAG	0.000785
GCGTGTCC	-0.326
CGCACTTC	-0.229

Further values, each from its own experiment
Substance	target	assay	system	setting	scale	endpoint	value
PhoQ, residues 284 288 289 292 302 303 AGGCYF	PhoP, residues 12 14 15 18 19 SQCLL (Escherichia coli, UniProt P23836)	Sort-seq, refers to: YFP reporter	E. coli	PhoQ-PhoP variant library, with: 10 µM Mg2+	baseline: high Mg2+ state, higher = stronger signaling	fold induction	13.2

For quick reference, copied from above (block 3):
Strand	E-score
ACTACGAG	0.000785
